Results gathered from unrelated publications.
Each line is one published result; not all experiments were run side by side. ± gives the spread as reported.
Technique: steady-state kinetics
B1: UGT1A9 (Homo sapiens, UniProt O60656); chain GKLLVVPMDGSHWFTMRSVVEKLILRGHEVVVVMPEVSWQLGRSLNCTVKTYSTSYTLEDLDREFKAFAHAQWKAQVRSIYSLLMGSYNDIFDLFFSNCRSLFKDKKLVEYLKESSFDAVFLDPFDNCGLIVAKYFSLPSVVFARGILCHYLEEGAQCPAPLSYVPRILLGFSDAMTFKERVRNHIMHLEEHLLCHRFFKNALEIASEILQTPVTEYDLYSHTSIWLLRTDFVLDYPKPVMPNMIFIGGINCHQGKPLPMEFEAYINASGEHGIVVFSLGSMVSEIPEKKAMAIADALGKIPQTVLWRYTGTRPSNLANNTILVKWLPQNDLLGHPMTRAFITHAGSHGVYESICNGVPMVMMPLFGDQMDNAKRMETKGAGVTLNVLEMTSEDLENALKAVINDKSYKENIMRLSSLHKDRPVEPLDLAVFWVEFVMRHKGAPHLRPAAHDLTWYQYHSLDVIGFLLAVVLTVAFITFKCCAYGYRKCLGKKGRVKKAHKSKTH
B2: enzyme (Bifidobacterium adolescentis, UniProt A1A3M6); chain MIRRYLNTVEESKMISGAGAMNPVCPREDGRLEWGNGVVSMLFDTAGDSPVRLCNVAGRGMGPIGGRVTDDGRTVLERDPRPIVEVRAANTGSQDNRLTLIATVAGSVLRFVSAAASEPEEGSAEPYRLEIVQFASYAELEPHGRAFEPTAAERAEAAAQPSPETVRHADATAGLVVTSVFEAFPGLSAVRTYTRLSSARPLPIEAVSSLNLTVPMRVNCGKIDHSRVFWGDSAWAVENDWRSRPLRDVSVRNRNQVINPGQSSSRFAMSSASTWSTGVHEPAGIVQVEGSRRQSRDFSVMWQIEHNGPWEWEIGEDDPGLHISAFGPEYQDHHWYTELGEGHDFESVPVSFAISAGDWQQSVAEMTLQRRALRAAKARELGRSEQFERTQGLVIYNDYMNTLFGDPRLEKELPLVEGAARVGADIFCIDAGWYDSTDGGWWDMVGEWQASTNRFGEAGLKGLADTIRAHGMGLGLWLEPEVIGVKSPLAQSLPDDAFFQRHGVRVCDSGRYLLDFRSPAAREHVTRTVNRLIDDFGAVFFKFDYNTVPGVGTDLDAESAGAGLLGHCRAYLDWLDDLRRRHPDVMIENCGSGAMRADYAQLQRLDLQSTSDQCDPLIYAAIAAGAGLTILPEQQGNWGYAQQEMDDETAVFTLATGILGRLYLSGFIDRMDEHRLALVRDAVALHRRVLTEQQELVPFWPARLPDFDGDWLVVGLRHPSFLPSEDDDSCDYIIVWRRGGTPSVNVPLSEDCHIEQIFPNPAVPEHAPDAKPWTVERMDPETVRLNAATSKQPSARIFAIR
B3: tsaM1 F253S/G291W/H204M/H255G/M230N/R216A/S234V/S257H/T232I/Y220I (Comamonas testosteroni, UniProt P94679); chain MFIRNCWYVAAWDTEIPAEGLFHRTLLNEPVLLYRDTQGRVVALENRCCHRSAPLHIGRQEGDCVRCLYHGLKFNPSGACVEIPGQEQIPPKTCIKSYPVVERNRLVWIWMGDPARANPDDIVDYFWHDSPEWRMKPGYIHYQANYKLIVDNLLDFTHLAWVHPTTLGTDSAASLKPVIERDTTGTGKLTITRWYLNDDMSNLMKGVAKFEGKADAWQIIQWSPPALLRNDIGVAPTGTGAPEGRRVPEAVQSRGTHIQTPETETTSHYWFCQARNFDLDDEALTEKIYQWVVVAFEEDRTMIEAHEKILSQVPDRPMVPIAADAGLNQGRWLLDRLLKAENGGTAP
B4: ycjQ (Escherichia coli, UniProt P76043); chain MKKLVATAPRVAALVEYEDRAILANEVKIRVRFGAPKHGTEVVDFRAASPFIDEDFNGEWQMFTPRPADAPRGIEFGKFQLGNMVVGDIIECGSDVTDYAVGDSVCGYGPLSETVIINAVNNYKLRKMPQGSSWKNAVCYDPAQFAMSGVRDANVRVGDFVVVVGLGAIGQIAIQLAKRAGASVVIGVDPIAHRCDIARRHGADFCLNPIGTDVGKEIKTLTGKQGADVIIETSGYADALQSALRGLAYGGTISYVAFAKPFAEGFNLGREAHFNNAKIVFSRACSEPNPDYPRWSRKRIEETCWELLMNGYLNCEDLIDPVVTFANSPESYMQYVDQHPEQSIKMGVTF
B5: SACOL1063 (Staphylococcus aureus, UniProt Q5HH30); chain MFSKVNNQKMLEDCFYIRKKVFVEEQGVPEESEIDEYESESIHLIGYDNGQPVATARIRPINETTVKIERVAVMKSHRGQGMGRMLMQAVESLAKDEGFYVATMNAQCHAIPFYESLNFKMRGNIFLEEGIEHIEMTKKLTSLN
B6: protein (Shewanella denitrificans, UniProt Q12KT8); chain MIHKLADVQSQNIGDNTKVWQFCVILAGAVIGRNCNICANSLIENDVVIGDNVTIKSGVQIWDGIHIQDDVFIGPNVTFTNDKQPRSKIYPDEYLKTIVKKGASIGANSTILPGILIGENAMVGAGAVITKNVPDNAIVIGNPGRITGYVEANTGVIMPSNNFELKLQMSKVKGVSLHKFHLVNDLRGNLSVGEFEKDIPFTPKRYFTVFGVPNKEVRGEHAHKECKQFLICVSGNCSVLVDDGENREEYVLDSIDKGIYLPPMTWGVQYKYSKDAVLLVFASHYYDSDDYIRDYSTFKQMRQN
B7: sacB S173A (Priestia megaterium, UniProt D5DC07); chain KGNDSKDFNNSYGISHITRDNMVKIPQQQNSDQFKVPAFDESTIKNIASAKGKNASGNTIDLDVWDSWPLQNADGTVATYHGYQIVFALAGDPKDSNDTSVYLFYKKAGDKSIDSWKNAGRVFKDSDKFVPNDPHLKNQTQEWAGSGTLTKDGKVRLFYTDYSGKQYGKQTLTTAQVNMSQPNDNTLKVDGVEDYKSIFDGDGKIYQTVQQFIDEGGYDTGDNHTLRDPHYIEDNGHKYLVFEANTGTEDGYQGEDSLYNRAYYGGNNPFFQSEKKKLLEGSNKEKASLANGALGIIELNDDYTLKKVMKPLITSNTVTDEIERANIFKKDGKWYLFTDSRGSKMTIDGIGQDDVYMLGYVSNTLTGKYKPLNDTGLVLHMDLDPNDKTFTYSHFAVPQTKGDNVVITSYMTNRGFYEDNHSTFAPSFLVNIDGSKTSVVKDRVLEQGQLTVDED
B8: GTPBP3 E459K (Homo sapiens, UniProt Q969Y2); chain TRRSSGAPAPGSGATIFALSSGQGRCGIAVIRTSGPASGHALRILTAPRDLPLARHASLRLLSDPRSGEPLDRALVLWFPGPQSFTGEDCVEFHVHGGPAVVSGVLQALGSVPGLRPAEAGEFTRRAFANGKLNLTEVEGLADLIHAETEAQRRQALRQLDGELGHLCRGWAETLTKALAHVEAYIDFGEDDNLEEGVLEQADIEVRALQVALGAHLRDARRGQRLRSGVHVVVTGPPNAGKSSLVNLLSRKPVSIVSPEPGTTRDVLETPVDLAGFPVLLSDTAGLREGVGPVEQEGVRRARERLEQADLILAMLDASDLASPSSCNFLATVVASVGAQSPSDSSQRLLLVLNKSDLLSPEGPGPGPDLPPHLLLSCLTGEGLDGLLEALRKELAAVCGDPSTDPPLLTRARHQHHLQGCLDALGHYKQSKDLALAAKALRVARGHLTRLTGGGGTEEILDIIFQDFCVGK
B9: enzyme (Thermobifida fusca, UniProt Q47RK4); chain MTDVYILDAVRTPFGRYGGALSGIRPDDLAAHVLRALAERSPGLDPAAVDDVFFGDANGAGEDNRNVARMAALLAGWPTSVPGVTLNRLCGSGMESVIAANRAIAVGDASLAVAGGVESMSRAPWVLPKPAQGFPTGHETLYSTTLGWRMVNPAMPEQWTVSLGESTEQVAATYGISRAEQDAFALRSHERAARAWAEGVFDAEITQIPGAELERDESIRETSAEKLAALKPAFRPDGTITAGNASPLNDGAAALLIGDAAAAERVGREPLARIVSRGVAAVDPDVFGIGPVQAAEIALRRAGIGWDDLSVVELNEAFAAQSLACLKLWPDLDPEIVNPNGGAIAIGHPLGASGARIVGTLAHELHRRGGGWGLAAICIGVGQGLAVVLHR
B10: Nudt8 (Mus musculus, UniProt Q9CR24); chain MLPDGLSAEDEQRCRQLLARTTARLRSRPAAAAVLVPLCLVRGVPALLYTLRSSRLVGRHKGEVSFPGGKCDPDDQDVIHTALRETQEELGLEVPKEHVWGVLQPVYDREKATIVPVLANVGPLDLQSLRPNLEEVDEVFEMSLAHLLQTQNQGYTHFCQGGHFSYTLPVFLHGPHRVWGLTAVITELTLKLLAPGFYQPSLAVPELPRG
B11: oxdC T165V (Bacillus subtilis, UniProt O34714); chain MKKQNDIPQPIRGDKGATVKIPRNIERDRQNPDMLVPPETDHGTVSNMKFSFSDTHNRLEKGGYAREVTVRELPISENLASVNMRLKPGAIRELHWHKEAEWAYMIYGSARVTIVDEKGRSFIDDVGEGDLWYFPSGLPHSIQALEEGAEFLLVFDDGSFSENSVFQLTDWLAHTPKEVIAANFGVTKEEISNLPGKEKYIFENQLPGSLKDDIVEGPNGEVPYPFTYRLLEQEPIESEGGKVYIADSTNFKVSKTIASALVTVEPGAMRELHWHPNTHEWQYYISGKARMTVFASDGHARTFNYQAGDVGYVPFAMGHYVENIGDEPLVFLEIFKDDHYADVSLNQWLAMLPETFVQAHLDLGKDFTDVLSKEKHPVVKKKCSK
Sequence of UniProt Q29437 (whole entry, looked up): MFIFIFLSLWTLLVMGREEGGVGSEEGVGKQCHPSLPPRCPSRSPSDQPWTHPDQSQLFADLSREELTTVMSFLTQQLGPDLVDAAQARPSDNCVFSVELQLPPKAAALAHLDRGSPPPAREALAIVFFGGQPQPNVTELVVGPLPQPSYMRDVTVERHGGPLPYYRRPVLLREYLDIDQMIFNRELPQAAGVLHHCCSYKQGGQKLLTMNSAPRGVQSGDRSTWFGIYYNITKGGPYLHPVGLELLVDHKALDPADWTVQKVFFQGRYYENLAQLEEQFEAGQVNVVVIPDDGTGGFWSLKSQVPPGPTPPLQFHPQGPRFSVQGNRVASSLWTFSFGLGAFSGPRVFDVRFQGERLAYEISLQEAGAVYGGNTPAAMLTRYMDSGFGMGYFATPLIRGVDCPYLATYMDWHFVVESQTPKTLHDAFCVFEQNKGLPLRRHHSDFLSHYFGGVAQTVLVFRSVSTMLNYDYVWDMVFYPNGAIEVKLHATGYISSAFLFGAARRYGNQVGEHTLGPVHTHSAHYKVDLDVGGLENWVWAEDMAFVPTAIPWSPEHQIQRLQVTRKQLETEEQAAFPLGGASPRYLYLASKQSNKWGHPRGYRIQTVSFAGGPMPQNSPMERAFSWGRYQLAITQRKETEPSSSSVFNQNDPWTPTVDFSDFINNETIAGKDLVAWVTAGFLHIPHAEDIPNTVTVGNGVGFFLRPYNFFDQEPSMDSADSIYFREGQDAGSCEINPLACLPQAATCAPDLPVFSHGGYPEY

B1 (UGT1A9)
Km (Cc1ccc(O)cc1; pH 7.4, 37 °C): 57.3 µM

protein (Sinorhizobium meliloti, UniProt Q92LZ4)
kcat/Km (O=C(O)C(=O)CO; pH 7.5, 25 °C, NaCl 150 mM, together with: NADPH 0.4 mM): 9310 ± 380 M⁻¹ s⁻¹

B2 (enzyme)
kcat/Km (O=[N+]([O-])c1ccc(O[C@H]2OC[C@H](O)[C@H](O)[C@H]2O)cc1; pH 5, 40 °C): 54900 M⁻¹ s⁻¹

protein I23F/S203N/S29F (Manduca sexta, UniProt Q8I8Y1)
kcat/Km (Oc1ccc(O)cc1; pH 7): 13.3 M⁻¹ s⁻¹

B3
kcat/Km (COc1c(Cl)ccc(Cl)c1C(=O)O; apparent, together with: NADH 1 mM): 1100 ± 200 M⁻¹ s⁻¹

B4 (ycjQ)
kcat/Km (CO[C@@H]1O[C@H](CO)[C@H](O)C(=O)[C@H]1O; pH 7, 30 °C, together with: NADH 0.3 mM, MnCl2 0.5 mM): 3100 ± 200 M⁻¹ s⁻¹

enzyme (Comamonas testosteroni, UniProt B7WQT1)
kcat/Km (O=C(O)c1ccccc1C(=O)O; pH 8, 25 °C, apparent): 583000 ± 87000 M⁻¹ s⁻¹

butyrylcholinesterase (Sus scrofa, UniProt A0A4X1VEU5)
kcat/Km (CC(=O)SCC[N+](C)(C)C; pH 8, 22 °C): 2.58e+06 ± 150000 M⁻¹ s⁻¹

B5 (SACOL1063)
kcat/Km (C[C@@H](O)[C@H](N)C(=O)O; pH 8, 37 °C, Hill coefficient, together with: AcCoA 1 mM, L-Thr 0-10 mM): 890 M⁻¹ s⁻¹

Plasma amine oxidase (Bos taurus, UniProt Q29437)
kcat/Km (NCCOc1ccc2cc(CN)ccc2c1; pH 7.2, 30 °C): 200000 M⁻¹ s⁻¹

enzyme (Triticum aestivum, UniProt A0A6J4BJG4)
kcat/Km (O=C1[C@@H](O[C@@H]2O[C@H](CO)[C@@H](O)[C@H](O)[C@H]2O)Oc2ccccc2N1O; pH 7.2, 30 °C): 1600 M⁻¹ s⁻¹

B6 (protein)
kcat/Km (Cc1cn([C@H]2C[C@H](O)[C@@H](COP(=O)(O)OP(=O)(O)O[C@H]3O[C@H](C)C(=O)[C@H](O)[C@H]3O)O2)c(=O)[nH]c1=O; pH 7.5, together with: NADPH 0.2 mM): 98000 M⁻¹ s⁻¹

oxdC (Bacillus subtilis, UniProt O34714)
kcat/Km (O=C(O)C(=O)O; pH 4.2, together with: Mn 1.87 per monomer, Triton X-100.2%): 6310 M⁻¹ s⁻¹

AphC (Rhodococcus jostii, UniProt Q0S9X1)
kcat/Km (Oc1ccccc1O; pH 8, 25 °C, apparent, together with: O2): 1500 M⁻¹ s⁻¹

B7 (sacB S173A)
kcat/Km (OC[C@H]1O[C@@](CO)(O[C@H]2O[C@H](CO)[C@@H](O)[C@H](O)[C@H]2O)[C@@H](O)[C@@H]1O; pH 6.6): 970 M⁻¹ s⁻¹

B8 (GTPBP3 E459K)
kcat/Km (Nc1nc2c(ncn2[C@@H]2O[C@H](COP(=O)(O)OP(=O)(O)OP(=O)(O)O)[C@@H](O)[C@H]2O)c(=O)[nH]1; pH 8, 37 °C, KCl 300 mM): 2340 M⁻¹ s⁻¹

B9 (enzyme)
kcat/Km (CC(C)(COP(=O)(O)OP(=O)(O)OC[C@H]1O[C@@H](n2cnc3c(N)ncnc32)[C@H](O)[C@@H]1OP(=O)(O)O)[C@@H](O)C(=O)NCCC(=O)NCCSC(=O)CCCC(=O)O; pH 7.4, 37 °C): 1.5 M⁻¹ s⁻¹

B10 (Nudt8)
kcat/Km (CCCC(=O)SCCNC(=O)CCNC(=O)[C@H](O)C(C)(C)COP(=O)(O)OP(=O)(O)OC[C@H]1O[C@@H](n2cnc3c(N)ncnc32)[C@H](O)[C@@H]1OP(=O)(O)O; pH 8.5, together with: 2 mM Mn2+): 8000 M⁻¹ s⁻¹

B11 (oxdC T165V)
kcat/Km (O=C(O)C(=O)O; pH 4.2, 25 °C): 70 M⁻¹ s⁻¹
